Assay results collected from several papers.
Every numbered part comes from another study and shows a few of its results, in no order. Changes are numbered by the printed parent chain.

Sample 1 — technique: RNA Bind-n-Seq; molecule type: RNA; medium: in vitro; concentration: 365 nM; reference: no-protein control; reading: higher = stronger binding
Target: RNA binding protein fox-1 homolog 2, RRM domain, GST-SBP tag (RBFOX2, Homo sapiens, UniProt O43251-10, residues 100-194)
Setting: natural RNA segment, single round, ends assumed
Constant ends, left off below: GGGAGUUCUACAGUCCGACGAUC … UGGAAUUCUCGGGUGCCAA
| Sequence | RBNS enrichment (R) |
| --- | --- |
| GUGUUUGUUUCAUGUGCCUGAAUAUCUUAAGCCACUUUCUGCAAAAGCUGUUUCUUACAGAUGAAGUGCUUUCUUUGAAAGGUGGUUAUUUAGGUUUUAGAUGUUUAAUA | 0.784 |
| AUCAGUCUCUGGGAUGGAGGCCAGAGAGCUGGUCAGGCUCCCCCAUCUGCCCAGCACGGCCUGCACUGUGCCCACCCACUUGCUCCACAACGUCCAGUUGGUCCUGCUGC | 0.655 |
| CAUCCAUUGUAGAGGGUGAGAAUAAAGGAGAAAUUAAAGCAUCUUGCAGGCUGGGCGCGGUAGCUCAUGUCUGUAAUCCCAGCACUUUGGGAGGCCGAGGUGGGUGUAUC | 1.14 |
| GUCUCCAGGGUAGGAGUGUUUUUCUAGCAAGAAUCUUAGUCAGGAGUAAGCUCUGUGCGAGAGAUCUGUGAAUAACCAGAUAACCCCAGCUGCCGUUAACCUUUUCACCA | 0.432 |
| UUUUUCCAAGGCAUUCAGAAGCAGAGAGGGAAAAGGGGCUGUGUGACCUAACAGGACAGAACUUUCUCCAAUUACUGGGUGAGUCAGAGCUGCACUGGUGACUCACUUCA | 0.468 |
| GUCUUAUGCAUAUACGUAAUGUCACCUAUUUAGGUAUCAUCCUAUUUGAGAGUUUGAGGAACUGAAACGUGUUGUGUUCAAGCAGCCUGGUGGCUAGUGCCUUCAUAUUA | 0.75 |
| GCAGGAUAAUUGAUGUUUUAUGUUCUUUUUUGGACUUUAUCUUCUUGCAAAAAUUUCUACAAAAAUUGUUUUCUUCAUCCUUGUGGUGCUUAUUCAUCUGAGCCGUCUCC | 0.527 |
| UUGUAAAACCAUCCCCUUCACCAGAAUGGUAUUAACUCCUGGUGCUUUGUACUACUGGUCCAGCUGCCUUGGGCUCCUUUUCUAUAUUAAUAAAGAAACGAGUAAAAAUU | 0.538 |
| CCUGGCGUGAUUGACGAUCUGAGUUUUAUCUCUCACACCUACAAGGUGGAAGAGGAGAACUGGCUCCCCACAGUUGUCCCCUGACCCUCACCCCUAACCCCCAAUCACAA | 0.457 |
| CCAUAUUUGUGGAUCGGGUAGUGGGAAAAGAGAUUAUAAUACUUGUCUUUCUCUCCUCUCCCUCCAUCCCUCAAAAGAUCUUUAUGCAUUUCCCACUACUCCCUUACUGU | 0.848 |
| CAUUCUGCUGAAAAUUUAAAACAGAGGGAGGAAAAAGGUGUUAUGCCUAUGUAUGGGGGGGGGGCGGUAGUGGAGUGAGGUGUUAUGUCAUGAGCAUUCAGAUUGCUGAA | 1.58 |
| UCUGCACUAUUAUCUGAUGACAUGUUGGUAAUUUUAAAGACUGCAAGGCAGUUUAGAGAAUGAAGUAAACCAAUAGAUACUCUUUUGAUUCUCCAAAGAAAUAUAAUUUU | 0.672 |

Sample 2 — technique: competition protein-binding microarray; molecule type: double-stranded DNA, one strand shown; medium: in vitro; concentration: 2 µM; added: Pho4 competitor, 0.05 µM; reading: higher = stronger binding; constant ends, left off below: … GTCTTGATTCGCTTGACGCTGCTG
Target: Centromere-binding protein 1, full length, His-tagged (CBF1, Saccharomyces cerevisiae, UniProt P17106, residues 1-351)
Chain of UniProt P17106 (whole entry, looked up): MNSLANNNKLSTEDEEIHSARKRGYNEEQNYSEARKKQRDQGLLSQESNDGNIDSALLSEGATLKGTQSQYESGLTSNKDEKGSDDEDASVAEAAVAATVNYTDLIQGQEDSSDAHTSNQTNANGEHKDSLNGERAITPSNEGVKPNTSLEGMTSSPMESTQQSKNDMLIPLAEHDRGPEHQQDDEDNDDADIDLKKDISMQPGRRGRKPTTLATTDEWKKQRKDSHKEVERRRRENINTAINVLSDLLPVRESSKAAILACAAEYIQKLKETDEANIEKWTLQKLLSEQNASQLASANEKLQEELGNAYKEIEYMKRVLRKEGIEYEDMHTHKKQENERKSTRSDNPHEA
Setting: whole 60-bp probe, lowest competitor level
| Sequence | fluorescence intensity [a.u.] |
| --- | --- |
| CGTCCTAGTGATTTTCACGTGCCTTCCATGAGGAAG | 1540 |
| TTCATTTCCCAGAGCAGCATGACAGCTTGGTTTCTT | 75 |
| CTTTCCCGATCTTTTCACGTGCACTTAGCACATTTG | 1190 |
| TCTTGAAGGAAACGTCACCTGCGCTTGCCGATGTCT | 93.5 |
| GCCCTGTAATGAAGCTGCGTGATGGGACCTGTGCCC | 74.3 |
| GGCGCAACATTTAATTGCATGACAAATTCCACTGCT | 83.6 |
| GTTTCTTCCTCTGGATACGTGGGACAGCTTGATGCT | 69.1 |
| TCCGAGGTTAGAGTGCCCGTGATGGACCTTTACGAA | 103 |
| TGAGCCTTCCCGTCGCGCGTGATGGGGAGATACAGA | 108 |
| TCCACCCATTGCTGCCGCGTGGACGCAGAATTTCCA | 76.1 |
| AAAAGCCAACGCCATCACGTGCAAAGAAATATCTGC | 6600 |
| CTTTATAAATCTCCACACGTTCCTGTTGGCGATGAT | 100 |
| TTCCGTTATTGTTAGCGCGTGAAACTGCCATGTCGG | 84.1 |

Sample 3 — technique: protein-binding microarray; molecule type: double-stranded DNA, one strand shown; medium: in vitro; concentration: 940 nM top; setting: 60-bp whole probe; added: salmon DNA 0.4 mg/ml; reference: random background probes; reading: higher = stronger binding; constant ends, left off below: GCCTAGCAC … GTCTTGATTCGCTTGACGCTGCTG
Target: Interferon regulatory factor 5, full length, phosphomimetic (IRF5, Homo sapiens, UniProt Q13568-2, residues 1-514, S451D/S453D/S456D/S462D)
| Sequence | fitted relative affinity [z-score] |
| --- | --- |
| TTAGGAATGCTTTTCCTTTAGTGCTAG | -0.346 |
| GACGAACTGAGTTTCGAGAGGTGCTAG | 3.34 |
| TGCAACATCTACAATGGCTTTGTGCTA | -0.177 |
| GACGAACGGAGTATCGAGACGTGCTAG | 1.02 |
| TTTTTTTTCACTATTGCTTCGTGCTAG | 2.26 |
| GACGGTTCCCTGTTCCTGACGTGCTAG | 0.646 |
| CTTCCACTTAGGGTGGCTGGGTGCTAG | -0.159 |
| TTAGCTCTCGGTTTCGGTTAGTGCTAG | 10.3 |
| TTAGGTTTCGGATTGGGTTAGTGCTAG | 8.95 |

Sample 4 — technique: universal PBM; molecule type: double-stranded DNA, one strand shown; medium: in vitro; concentration: not given; reading: higher = stronger binding
Target: Sal-like protein 4, full length isoform B (SALL4, Homo sapiens, UniProt Q9UJQ4-2, residues 1-616)
Setting: 8-mer, flanks averaged, mean of replicates
Construct (chain): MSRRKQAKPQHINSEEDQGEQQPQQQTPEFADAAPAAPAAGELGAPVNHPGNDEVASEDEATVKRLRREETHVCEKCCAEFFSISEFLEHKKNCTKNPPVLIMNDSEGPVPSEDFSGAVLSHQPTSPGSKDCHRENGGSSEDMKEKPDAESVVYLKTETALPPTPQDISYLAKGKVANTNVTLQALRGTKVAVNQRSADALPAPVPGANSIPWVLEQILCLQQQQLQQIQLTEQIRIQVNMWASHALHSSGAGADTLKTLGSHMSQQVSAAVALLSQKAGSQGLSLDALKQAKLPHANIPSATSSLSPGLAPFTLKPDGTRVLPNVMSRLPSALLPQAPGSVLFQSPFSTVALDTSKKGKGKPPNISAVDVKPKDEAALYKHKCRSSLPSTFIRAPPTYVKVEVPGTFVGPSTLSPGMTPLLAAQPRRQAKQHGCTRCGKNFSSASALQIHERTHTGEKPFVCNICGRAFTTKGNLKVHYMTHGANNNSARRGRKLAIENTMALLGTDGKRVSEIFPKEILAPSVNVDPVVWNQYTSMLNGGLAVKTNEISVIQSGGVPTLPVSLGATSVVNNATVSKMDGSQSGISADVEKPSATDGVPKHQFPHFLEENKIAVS
| Sequence | E-score |
| --- | --- |
| ATTTTTCC | 0.254 |
| GGAACCTA | -0.0151 |
| ACGGATAA | 0.1 |
| CTCGTTCC | -0.183 |
| AGTTCAAA | 0.0478 |
| CCTAGTAC | 0.0318 |
| ATTTCATA | 0.383 |
| ACATTGGC | 0.0508 |
| ACTCGATA | 0.113 |
| GATATCGA | 0.14 |
| CATGGCAG | -0.0579 |
| GGCACAAA | 0.0162 |
| CCTTCATC | -0.171 |
| GAATTTGA | 0.0823 |
| TGTTCGAA | 0.0178 |
| CTCAAAGA | -0.0665 |
| AATTTCAG | 0.184 |
| ACGATCAA | 0.203 |

Sample 5 — technique: DHFR PCA, dose-response; medium: yeast; setting: Hill fit, mean, not affinity; added: (+)-ABA, dose series; reading: lower = more sensitive
Target: ABI1, truncated, D143A, DHFR fusion (Arabidopsis thaliana, UniProt P49597)
Parent: PYL1, truncated, DHFR fusion (Arabidopsis thaliana, UniProt Q8VZS8); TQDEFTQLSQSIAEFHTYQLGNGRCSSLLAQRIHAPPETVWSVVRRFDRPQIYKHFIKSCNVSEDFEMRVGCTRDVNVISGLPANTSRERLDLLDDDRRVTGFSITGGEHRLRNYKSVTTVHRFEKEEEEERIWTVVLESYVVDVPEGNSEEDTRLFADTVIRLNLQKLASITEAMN
| Substitution | ABA EC50 [µM] |
| --- | --- |
| V145F | 243 |
| L8A | 34.4 |
| D96Y | 250 |
| S171I | 2.79 |
| G148S | 11.4 |
| E67H | 3.65 |
| T119L | 5.13 |
| R45S | 20.8 |
| K58N | 8.83 |
| I172S | 64.7 |
| T73N | 11.2 |
| E64W | 5.55 |

Sample 6 — target: CCNE1, cyclin fold, Cln2 fusion (human); technique: yeast growth competition, sequencing; medium: yeast; setting: weak parent motif; reference: not given; reading: higher = stronger binding
Parent: SAMHD1 docking peptide (human); ASKSRVQLFKDDP
| Substitution | normalised enrichment score |
| --- | --- |
| F9M | 0.0222 |
| V6M | 0.241 |
| S2R | -0.165 |
| F9S | 0.0585 |
| V6H | -0.341 |
| S2T | 0.0371 |
| R5C | 0.308 |
| K10D | 0.0617 |
| D11T | 0.349 |
| V6S | -0.352 |
| S2W | 0.342 |
| K10C | 0.257 |
| S4G | 0.149 |

Sample 7 — technique: RNA Bind-n-Seq; molecule type: RNA; medium: in vitro; concentration: not given; reference: input RNA pool; reading: higher = stronger binding
Target: RING finger protein unkempt homolog, zinc fingers 1-6, GST-SBP tag (UNK, Homo sapiens, UniProt Q9C0B0, residues 30-357)
Chain of UniProt Q9C0B0 (30-357, looked up): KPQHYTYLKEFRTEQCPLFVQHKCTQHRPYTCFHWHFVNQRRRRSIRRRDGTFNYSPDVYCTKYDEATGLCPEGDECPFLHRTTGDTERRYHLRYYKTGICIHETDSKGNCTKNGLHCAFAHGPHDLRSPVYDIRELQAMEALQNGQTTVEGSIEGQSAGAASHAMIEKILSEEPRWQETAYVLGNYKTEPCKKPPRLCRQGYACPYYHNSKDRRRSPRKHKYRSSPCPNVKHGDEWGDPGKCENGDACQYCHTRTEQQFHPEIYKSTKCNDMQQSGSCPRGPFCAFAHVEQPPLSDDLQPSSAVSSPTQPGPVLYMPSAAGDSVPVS
Setting: RNA with constant flanks, human-mouse chimeric sites, ends assumed
Constant ends, left off below: GGGAGUUCUACAGUCCGACGAUC … CAACAGAGGAUUGAGCAUCA
| Sequence | bound/input enrichment |
| --- | --- |
| CGGAAGUUCUUGAUUUAUCAUUUUUCUCUUUUCUUUCAGAUCGUCAGGAAAAGCCUAAAGAUUAGGUUGUAAGAAAAACAGAAGCCAUGUUUCGAAGACCUGUGUUACAGGUAUUUCGUC | 0.135 ratio |
| CUCAGAGAUGUGGCAUAUCAGUAUGUGAAAAAGGGGUCUCGUAUAUUUGUGGAAGGGAAAGUGGACUAUGGUGAAUACAUGGAUAAAAACAAUGUGAGGCGGCAAGCAACAACAAUCAUA | 0.394 ratio |
| AAAUUUCCCCUCCUGAGACCUCCUCCGAAGUUGGAGUCUCUUACAGAUGCCUCAUCCCCUGUUAGCGUUUUAGUUUGGACCACCCAGCCUUGGACAAUUCCCGCCAACCAGGCAAUUUGC | 1.18 ratio |
| UAUAAUAAUCAUGAAAUUCGUUCCGGGAAGCACAUUGGUGUCUGCAUCUCAGUUGCCAACAAUAGGCUUUUUGUGGGCUCUAUUCCUAAGAGUAAAACCAAGGAACAGAUUCUUGAGGAA | 0.437 ratio |
| CUGUGUGGCUUACUAAAAUGGCUUGUAAAGAAGUUUUCCAAGUUGUAAACCCAUGCUGUUAUUAUAGUUGCUGCAAAAUGUUCUUCCUGAUAUUGAUUUUAUUUGUUAACUGAAGGUCUC | 0.528 ratio |
| AAAGAACUUGCUGAUGAUGAAGAUGAGGAAGACAAUGAUGAUGUUGAACCCAUUUCUGAAUUUCGAUUUGUGCCCAGUGAUAAGUCAGCAUUGGAGGCGAUGUUCACAGCAAUGUGUGAG | 0.327 ratio |
| UUUCUACUGCAGCAAACGAUGCUAAGAAUUAAGGAUCCUAAGAAGUCCCUGGAUUUUUAUACUAGAGUUCUUGGACUGACCCUCCUGCAGAAGCUUGACUUCCCUGCUAUGAAGUUCUCG | 0.827 ratio |
| UGUAGUUUCUUGAUUUAUCAUUUUUCUCUUUUCUUUCAGAUCGUCAGGAAAAGCCUAAAGAUUAGGUUGUAAGAAAAACAGAAGCCAUGUUUCGAAGACCUGUGUUAAUUACAGGUAGUC | 0.306 ratio |
